# Assay results collected from several papers.
# Numbered parts are unrelated; each lists some results of a single study. Substitutions count along the parent as printed.

# Sample 1
# Target: Ras GTPase-activating protein-binding protein 1, C-terminal RGG region (G3BP1, Homo sapiens, UniProt Q13283)
# Chain of UniProt Q13283 (whole entry, looked up): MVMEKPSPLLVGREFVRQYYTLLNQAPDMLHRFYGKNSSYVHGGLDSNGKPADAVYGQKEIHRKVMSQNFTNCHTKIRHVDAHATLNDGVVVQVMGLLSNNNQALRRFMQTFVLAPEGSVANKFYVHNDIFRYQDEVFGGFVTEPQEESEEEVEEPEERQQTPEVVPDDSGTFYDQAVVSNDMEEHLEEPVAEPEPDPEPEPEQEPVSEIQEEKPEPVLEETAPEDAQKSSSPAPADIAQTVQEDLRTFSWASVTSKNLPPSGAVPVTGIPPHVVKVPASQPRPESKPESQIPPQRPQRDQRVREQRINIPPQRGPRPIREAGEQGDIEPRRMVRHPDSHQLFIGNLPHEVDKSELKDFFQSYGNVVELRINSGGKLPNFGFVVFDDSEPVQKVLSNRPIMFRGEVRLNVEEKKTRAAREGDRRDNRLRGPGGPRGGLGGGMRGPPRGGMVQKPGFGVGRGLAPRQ
# Method: RNA Bind-n-Seq
# Molecule type: RNA
# Medium: in vitro
# Tested at: 1 µM
# Setting: whole 134-nt RNA, ends assumed
# Added: 150 mM KCl
# Relative to: input library
# Reading: higher = stronger binding
# All sequences stand within: GGGAGUUCUACAGUCCGACGAUC … UGGAAUUCUCGGGUGUCAAGG
Oligonucleotide,log2 enrichment
UGGCCCUGAUGGCAUGCGGGGAGGAAGAGGUGGCCUCAUGGAUCGUGGUGGUCCCGGUGGAAUGUUCAGAGGUGGCCGUGGUGGAGACAG,2.2
UAACUUUAGAGGAGGAUCUGAUGGAUAUGGCAAUGGACGUGGAUUUGGGGAUGGCUAUAAUGGGUAUGGAGGAGGACCUGGAGGUGGCAA,-1.34
AAGUCCUGUGCUACACAUCGUAUGUACCGAAUCGGUUUUUUUGGUGGUUUUUUUGGAAAGUAUUAUGUUACGCCGUUCGGAUCUGCACUU,-2.04
UCCUGUGCUACACAUCGUAUGUACCGAAUCGGGUUUUUUGGGUUUUUUGGGUUUUUUGGAAAGUAUUAUGUUACGCCGUUCGGAUCUGCA,-0.442
CCUCAAGUCCUGUGCUACACAUCGUAUGUACCGAAUCGGGAGGGGAGGAGGGAAAGUAUUAUGUUACGCCGUUCGGAUCUGCACUUCCAG,0.229
GCAGGAAGUAAUAACAAAUGGAAAUGCUUCGGAUAGUGGCAGGGGUGGGGGUUGCUAAGGAAAGGGUGGGAUGGGAGUGGGUAAAGAGUU,1.24
ACCAUACUUGACAACUUCUGAUUGAAUGCCCAUGCCCAAUGCCAACAUCCACGAACGCCAAUGACCAAUGCAGUACAAUGCCAGUGUUUC,-0.691
CCUGUGCUACACAUCGUAUGUACCGAAUCGGGCCCCCCCGGCCCCCCCGGCCCCCCCGGGGAAAGUAUUAUGUUACGCCGUUCGGAUCUG,-1.69
GCAGGAAGGAAAAACAAAUGGAAAUGCUUCGGAUAGUGGCAGGGGUGGGGGUUGCUAAGGAAAGGGUGGGAUGGGAGUGGGUAAAGAGUU,1.69

# Sample 2
# Target: ABI1, truncated, D143A, DHFR fusion (Arabidopsis thaliana)
# Method: DHFR PCA, deep sequencing
# Medium: yeast
# Setting: methotrexate growth selection, single substitutions
# Added: (+)-ABA 0.11 µM
# Relative to: wild-type fitted maximum
# Reading: higher = stronger binding
# Starting sequence: PYL1, truncated, DHFR fusion (Arabidopsis thaliana); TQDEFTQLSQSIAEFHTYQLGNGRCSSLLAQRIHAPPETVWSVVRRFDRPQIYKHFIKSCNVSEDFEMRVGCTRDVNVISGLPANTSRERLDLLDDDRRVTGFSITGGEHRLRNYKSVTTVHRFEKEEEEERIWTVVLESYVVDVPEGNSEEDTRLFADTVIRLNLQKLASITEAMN
Substitution,relative binding score [%]
E109M,2.36
R155W,-0.861
F157Q,6.38
A175H,24.6
F157T,3.38
D144F,-24.1

# Sample 3
# Target: Centromere-binding protein 1, full length, N-terminal tag (CBF1, Saccharomyces cerevisiae, UniProt P17106, residues 1-351)
# Chain of UniProt P17106 (whole entry, looked up): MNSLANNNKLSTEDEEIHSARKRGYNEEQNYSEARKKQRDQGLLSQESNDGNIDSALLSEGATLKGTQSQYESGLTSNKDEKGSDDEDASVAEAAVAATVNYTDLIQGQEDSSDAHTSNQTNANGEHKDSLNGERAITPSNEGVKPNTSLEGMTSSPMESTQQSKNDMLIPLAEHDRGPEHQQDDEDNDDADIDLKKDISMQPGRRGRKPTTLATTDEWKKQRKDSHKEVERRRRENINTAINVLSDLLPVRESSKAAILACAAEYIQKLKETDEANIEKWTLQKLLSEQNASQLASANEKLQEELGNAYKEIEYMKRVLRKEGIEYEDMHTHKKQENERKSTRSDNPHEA
# Method: protein-binding microarray
# Molecule type: double-stranded DNA, one strand shown
# Medium: in vitro
# Tested at: 0.8 µM
# Setting: whole 60-bp probe, no competitor
# Reading: higher = stronger binding
# All sequences stand within: … GTCTTGATTCGCTTGACGCTGCTG
Oligonucleotide,fluorescence intensity [a.u.]
CTAGACACCGAGCGGCACGTACTATATTATCCGTTC,542
GAAAATGACTAGAATGGGCACGTGATCATAAAATAG,29000
CCTAACTACTATAGTCATGAGCAATAGCTTCGTACA,576
CTACCAATATATACTCACATGTAACAACTTATTTTC,845
GAACTAGTAGTACCAGGTGAGGTAAAACAAGCATAG,571
GAATCGCCTGAGTGTTACGTGAGATTACATATATAG,521
TGTACGAAGCTATGTGATCTGCGTATAGTAGTTAGG,547
CTAGAAAATGGACGTGACGAATCAATAAAAGAATTC,729
CTATGCAGGACTGGGCACGTTTTACAATACGTATTC,657

# Other studies, line by line
Molecule,target,test,system,setting,scale,endpoint,value
"PhoQ, residues 284 288 289 292 302 303 ALASRC","PhoP, residues 12 14 15 18 19 LYFRQ (Escherichia coli, UniProt P23836)","Sort-seq, measured: YFP reporter",E. coli,"PhoQ-PhoP variant library, added: 10 µM Mg2+","relative to: high Mg2+ state, higher = stronger signaling",fold induction,8.12
